Experimental data collected from several papers.
A part holds a random share of what one study measured. Changes are numbered by the printed parent chain.

Series 1
Target: Histone acetyltransferase KAT6A, winged helix 2, GST fusion (KAT6A, Homo sapiens, UniProt Q92794, residues 85-181)
Technique: protein binding microarray
Form: double-stranded DNA, one strand shown
Sample: in vitro
Tested at: not given
Notes: 8-mer, flanks averaged, mean of 2 arrays, mostly near background
Reference: not given
Direction: higher = stronger binding
Construct (chain): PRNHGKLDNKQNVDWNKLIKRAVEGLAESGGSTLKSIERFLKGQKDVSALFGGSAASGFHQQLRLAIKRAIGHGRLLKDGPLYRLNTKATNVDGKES
Sequence	E-score
ATTTGATC	-0.0389
ACCTAGTA	-0.129
ACAGAACG	-0.0386
GGGCTTCA	-0.141
CACGTTGG	-0.165
TATACCCA	-0.141
GGTCGCAA	0.12
AGGGATGG	0.0423
AATTCGTG	-0.00467
TCGTCAGA	0.00879
ACCTCCTC	-0.0618
ACACATAT	-0.171
ACTACTGC	-0.188
GGCTCACA	-0.0824
TCCTGACA	-0.00326
CCAGATTA	0.0186
CGAGACCA	-0.0368
AAAGCTAC	-0.0996
CCGCTGAC	0.105
ACACTGCA	0.0281
ACTCCCGA	0.101
CAACCGCG	0.217
GAAACAAC	0.0533
ACAAGAAA	0.074
CAAACTAA	0.12

Series 2
Target: CCNB1, cyclin fold, Cln2 fusion (human)
Technique: yeast growth competition, sequencing
Sample: yeast
Notes: strong parent motif
Reference: not given
Direction: higher = stronger binding
Parent: PKMYT1 docking peptide (human); SFEPRNLLSLFED
Change	normalised enrichment score
S9N	1.45
E3G	-0.154
D13V	0.75
D13Y	0.717
P4T	0.261
S9A	1.71
E3N	-0.303
N6Q	0.146
E12R	0.225
S1L	1.47
P4K	0.214
F11C	0.0368
F2R	0.304
S1T	0.963
P4W	0.162
P4M	0.517
L7F	-0.0918
L8T	0.366
L10V	0.441
R5I	0.974
L8Y	1.6
P4N	0.2
R5S	0.413
F11S	0.605
E12F	-0.00289

Series 3
Target: Interferon regulatory factor 5, full length, phosphomimetic (IRF5, Homo sapiens, UniProt Q13568-2, residues 1-514, S451D/S453D/S456D/S462D)
Technique: protein-binding microarray
Form: double-stranded DNA, one strand shown
Sample: in vitro
Tested at: 940 nM top
Notes: 60-bp whole probe
Added: salmon DNA 0.4 mg/ml
Reference: random background probes
Direction: higher = stronger binding
Constant ends, left off below: GCCTAGCAC … GTCTTGATTCGCTTGACGCTGCTG
Sequence	fitted relative affinity [z-score]
TTAGATTTCAGTATCGCTTAGTGCTAG	3.02
GAATGAATGGACATTTCTTCGTGCTAG	-0.347
TTAGATCTCCTACTGCTTTAGTGCTAG	0.269
TAAGGTATCCTACTGCTTTAGTGCTAG	0.065
GATGGTCTCGGTATCGGGACGTGCTAG	5.41
TCAATTTTTTTTCACTAACTGTGCTAG	1.38
TTAGGACTGTGTCTCGGTTAGTGCTAG	1.14
TTAGATTGCAGTTCCGATTAGTGCTAG	0.817
TCATTTTCATTTTCCAAACTGTGCTAG	2.51
TCATATTGCTTTCTCTTACTGTGCTAG	1.91
GACGATATAAGTATCGAGACGTGCTAG	1.27
CACCCCGCCCCTCCTTGGCCGTGCTAG	0.0864
TTAGATTTCAGACTGGATTCGTGCTAG	0.0252
TACGGTCTCGGTCTCGGGACGTGCTAG	3.48
GACGGTTTCGGGCTTCGGGACGTGCTA	6.5
AAAGATTTACAAACTGTGAGGGTGCTA	-0.348
AAGTGTTTCTCAACCAGTTTGTGCTAG	0.583
TCAGTTCTGATCCTTCCCACTGTGCTA	0.657
CGCAGGGCAGGCTTCGGCCGGTGCTAG	-1.25

Series 4
Target: RNA binding protein fox-1 homolog 2, RRM domain, GST-SBP tag (RBFOX2, Homo sapiens, UniProt O43251-10, residues 100-194)
Technique: RNA Bind-n-Seq
Form: RNA
Sample: in vitro
Tested at: 365 nM
Notes: natural RNA segment, single round, ends assumed
Reference: no-protein control
Direction: higher = stronger binding
Target sequence (chain): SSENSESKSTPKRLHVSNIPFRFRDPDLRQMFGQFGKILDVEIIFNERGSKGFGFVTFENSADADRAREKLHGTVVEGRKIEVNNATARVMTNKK
Sequence	RBNS enrichment (R)
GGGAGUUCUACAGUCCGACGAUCAUUCCAUGAAAGAUGCAUUCAUUUAUUGAAGAUGACAAAAAAGGGAGUCAGAUAUAUUCUGGAAGCUAUUUUAAUUUUAGGCACACAAUCUCAUACAUUUUGAGACCCUUUGGAAUUCUCGGGUGCCAA	0.38
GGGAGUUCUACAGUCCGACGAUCAGGAUUUAAGCUUAGGGGAUUUUAUUUUUAUAAAUACCAGAUUAUUGUUAGACUUAAUAAAUCACUGUUAAAUUUAAAGAUGACAGUUACCUUGGAAAGUUCACUAAUACUGGAAUUCUCGGGUGCCAA	0.567
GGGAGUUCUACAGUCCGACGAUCUUUGAUACAAUAGUCAAAACCAAACUACCUUGACAUUUUUCUAAGACAGCUUAAUGGCUGAUGCUCGUCUUCACAGCCCGUGGCGGGCUUUAACGUAGCUCGAAUCUGGUUGGAAUUCUCGGGUGCCAA	0.322
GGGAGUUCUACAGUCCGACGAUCGCACCCGUGCUCACUGUUGUUGGACGGGCUGGUCCACAGCCUCAGACCCACGCUCUGCCGAGAUACUGGACGGGAGGAAGGAUUUUUCCUAGACUGCGGAUUGGCGUGACUGGAAUUCUCGGGUGCCAA	0.29
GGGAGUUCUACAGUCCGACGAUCUGCGUGGUCUUUCUCCUCCUUUUCAAAGCAAUAGCCGCCGGGUCUGCAAAGCCCUGUCAGACAGACUGGGCCCUUCCAAGGUCAAGCCAUGUGUCUGAUGACAUUCCUGGUGGAAUUCUCGGGUGCCAA	0.211
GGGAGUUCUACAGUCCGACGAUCAGUCGGCCAUCUAGCAGCUCCCAGAACCCACGGCUGCCACUGCGUCCGUAUAAACCUGUCAGCACGCACGAGGGUGUCUGUGUUCUAGGAAACGAAUGACUAAUAGCAUUUGGAAUUCUCGGGUGCCAA	0.259
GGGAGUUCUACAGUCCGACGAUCCUGUUUGACAGUUUAACUCAAGUCAUGCUUCAAACUGUUUUAAUGAUCAAAUCAAGACACAUUUCAUUUUACAUUUUAUUAUUGUACAGUUUUUGUUUCGGAUGAUGAUCUGGAAUUCUCGGGUGCCAA	0.328
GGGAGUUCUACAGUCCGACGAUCUUAUUUUUUAUUUUAAAAGAAAAUUGACUUAUUUACCACAAGCUAUUUUUUUCCCUUCUGGCUGUAAGGUUUGUACAGACUGGUUUGGUAAAUGCUAAACUUUUGUGUCUUGGAAUUCUCGGGUGCCAA	1.34
